# Results from different studies.
# Compare with care: the assays were run in different laboratories. “And” joins repeats or separate records; there may be more than shown.
# Spike glycoprotein: Spike glycoprotein (Severe acute respiratory syndrome coronavirus 2, UniProt P0DTC2)
# rep main protease: Replicase polyprotein 1ab, main protease (rep, Severe acute respiratory syndrome coronavirus 2, UniProt P0DTD1)
# Sequence of UniProt Q7BQ98 (whole entry, looked up): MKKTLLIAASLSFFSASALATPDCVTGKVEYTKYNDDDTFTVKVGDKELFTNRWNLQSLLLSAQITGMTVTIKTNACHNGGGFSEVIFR
# Sequence of UniProt P78348 (whole entry, looked up): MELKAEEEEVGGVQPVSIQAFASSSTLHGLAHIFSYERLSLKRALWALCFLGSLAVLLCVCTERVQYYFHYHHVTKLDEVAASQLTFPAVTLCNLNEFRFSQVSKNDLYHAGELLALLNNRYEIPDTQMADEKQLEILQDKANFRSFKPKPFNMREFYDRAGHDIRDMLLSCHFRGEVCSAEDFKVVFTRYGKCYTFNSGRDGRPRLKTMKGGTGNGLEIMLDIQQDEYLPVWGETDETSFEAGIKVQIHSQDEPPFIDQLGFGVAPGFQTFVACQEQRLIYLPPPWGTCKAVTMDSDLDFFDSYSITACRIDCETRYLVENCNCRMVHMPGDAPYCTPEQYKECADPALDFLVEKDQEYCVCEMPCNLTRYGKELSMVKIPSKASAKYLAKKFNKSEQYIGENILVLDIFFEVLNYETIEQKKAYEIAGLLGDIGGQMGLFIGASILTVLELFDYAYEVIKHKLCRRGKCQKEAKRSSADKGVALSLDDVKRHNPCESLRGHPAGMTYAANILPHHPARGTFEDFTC
SMILES,tested on,assay,system,conditions,scale,quantity,value
CC[C@H](C)[C@H](NC(=O)[C@H](CC(C)C)NC(=O)[C@H](Cc1c[nH]c2ccccc12)NC(=O)[C@H](CCC(N)=O)NC(=O)[C@@H](NC(=O)[C@H](Cc1ccccc1)NC(=O)[C@H](C)NC(=O)[C@H](CCCCNC(=O)COCCOCCNC(=O)COCCOCCNC(=O)CC[C@H](NC(=O)CCCCCCCCCCCCCCCCCCC(=O)O)C(=O)O)NC(=O)[C@H](CCC(N)=O)NC(=O)[C@H](C)NC(=O)[C@@H](NC(=O)[C@H](CCCCN)NC(=O)[C@H](CC(=O)O)NC(=O)[C@H](CC(C)C)NC(=O)C(C)(C)NC(=O)[C@@H](NC(=O)[C@H](CO)NC(=O)[C@H](Cc1ccc(O)cc1)NC(=O)[C@H](CC(=O)O)NC(=O)[C@H](CO)NC(=O)[C@@H](NC(=O)[C@H](Cc1ccccc1)NC(=O)[C@@H](NC(=O)CNC(=O)[C@H](CCC(=O)O)NC(=O)C(C)(C)NC(=O)[C@@H](N)Cc1ccc(O)cc1)[C@@H](C)O)[C@@H](C)O)[C@@H](C)CC)[C@@H](C)CC)C(C)C)C(=O)N[C@@H](C)C(=O)NCC(=O)NCC(=O)N1CCC[C@H]1C(=O)N[C@@H](CO)C(=O)N[C@@H](CO)C(=O)NCC(=O)N[C@@H](C)C(=O)N1CCC[C@H]1C(=O)N1CCC[C@H]1C(=O)N1CCC[C@H]1C(=O)N[C@@H](CO)C(N)=O,,item: treatment-emergent upper respiratory tract infection,healthy subjects,"1.5 mg, multiple ascending dose",,subjects with adverse event,0%
Nc1ncnc2c([C@@H]3N[C@H](CO)[C@@H](O)[C@H]3O)c[nH]c12,Marburg virus,viral replication,"HeLa, Angola",1.6 µM,,inhibition,22.6%
CC[C@H](C)[C@H](NC(=O)[C@@H]1CCCN1C(=O)[C@H](C)NC(=O)[C@@H]1CSSC[C@@H]2NC(=O)[C@H](CC(=O)O)NC(=O)[C@H](CCCNC(=N)N)NC(=O)[C@H](CCC(=O)O)NC(=O)[C@H](CCCNC(=N)N)NC(=O)CNC(=O)[C@H](CC(=O)O)NC(=O)[C@@H]3CSSC[C@H](NC(=O)[C@H](CCC(=O)O)NC(=O)[C@H](CC(C)C)NC(=O)CNC(=O)[C@H](C)NC(=O)[C@H](CSSC[C@H](NC(=O)[C@H](Cc4ccccc4)NC(=O)[C@@H](N)CO)C(=O)N[C@@H](CC(C)C)C(=O)N[C@@H](C(C)C)C(=O)N[C@@H](CCCCN)C(=O)N[C@@H](Cc4c[nH]c5ccccc45)C(=O)N[C@@H](CCCCN)C(=O)N[C@@H](CCC(N)=O)C(=O)N3)NC2=O)C(=O)N[C@@H](Cc2c[nH]c3ccccc23)C(=O)N[C@@H](CCCCN)C(=O)N[C@@H](CCCNC(=N)N)C(=O)N[C@@H](CCCNC(=N)N)C(=O)NCC(=O)N[C@@H](CC(N)=O)C(=O)N[C@@H](CCCCN)C(=O)N[C@@H](CO)C(=O)N[C@@H](CO)C(=O)N[C@@H](C(C)C)C(=O)N1)C(=O)N[C@H](C(=O)O)[C@@H](C)O,"Acid-sensing ion channel 1 (ASIC1, Homo sapiens, UniProt P78348)","binding, SPR",,pH 7.5,,kon,4.79e+07 M⁻¹ s⁻¹
O=C(/C=C/c1ccc(O)c(O)c1)OC[C@H]1O[C@@H](OCCc2ccc(O)c(O)c2)[C@H](O)[C@@H](O)[C@@H]1O,Spike glycoprotein,binding,,,,koff,0.00309 s⁻¹
CCc1c(C(=O)C(N)=O)c2c(OCC(=O)O)cccc2n1Cc1ccccc1,Daboia russelii venom phospholipase A2,"enzyme activity, inhibitor",PB population,"0.001 µM, with: NOB substrate",baseline: venom alone,remaining activity,100% and 97.5%
C[C@@H]1O[C@@H](O[C@@H]2C(=O)c3c(O)cc(O)cc3O[C@@H]2c2ccc(O)c(O)c2)[C@H](O)[C@H](O)[C@H]1O,rep main protease,"reporter gene (Gaussia luciferase), inhibitor",,20 µM,,inhibition,0.637%
C[C@@H]1O[C@@H](O[C@H]2C(=O)c3c(O)cc(O)cc3O[C@@H]2c2ccc(O)c(O)c2)[C@H](O)[C@H](O)[C@H]1O,Spike glycoprotein,"binding, BLI",,,,koff,0.00894 s⁻¹
Cn1cnc(Cn2c(=O)[nH]/c(=N\c3cc4cn(C)nc4cc3Cl)n(Cc3cc(F)c(F)cc3F)c2=O)n1,,,"human, all renal function groups","oral, 375 mg, decreased GFR TEAE, Severe severity",,patients with adverse event,0%
O=C(NCCCCCCCCCCCCNC(=O)c1cc(OCc2cn([C@@H]3O[C@H](CO)[C@H](O[C@H]4O[C@H](CO)[C@H](O)[C@H](O)[C@H]4O)[C@H](O)[C@H]3O)nn2)cc(OCc2cn([C@@H]3O[C@H](CO)[C@H](O[C@H]4O[C@H](CO)[C@H](O)[C@H](O)[C@H]4O)[C@H](O)[C@H]3O)nn2)c1)c1cc(OCc2cn([C@@H]3O[C@H](CO)[C@H](O[C@H]4O[C@H](CO)[C@H](O)[C@H](O)[C@H]4O)[C@H](O)[C@H]3O)nn2)cc(OCc2cn([C@@H]3O[C@H](CO)[C@H](O[C@H]4O[C@H](CO)[C@H](O)[C@H](O)[C@H]4O)[C@H](O)[C@H]3O)nn2)c1,"Shiga toxin subunit B (stxB, Shigella dysenteriae, UniProt Q7BQ98)",,Escherichia coli,,,log IC50,-4.87
CC(C)C[C@H](NC(=O)[C@H](CC(=O)O)NC(=O)CNC(=O)[C@H](CCCNC(=N)N)NC(=O)[C@H](CC(C)C)NC(=O)[C@H](CC(N)=O)NC(=O)[C@@H]1CCCN1C(=O)[C@@H](NC(=O)[C@H](C)NC(=O)[C@H](CC(N)=O)NC(=O)CCOCCOCCOCCOCCOCCOCCOCCOCCOCCOCCOCCOCCOCCOCCOCCOCCOCCOCCOCCOCCOCCOCCOCCOCCOCCOCCOCCOCCNC(=O)c1ccc(F)cc1)C(C)C)C(=O)N[C@@H](CCC(N)=O)C(=O)N[C@H](C(=O)N[C@@H](CC(C)C)C(=O)N[C@@H](C)C(=O)N[C@@H](CCC(N)=O)C(=O)N[C@@H](CCCCN)C(=O)N[C@H](C(=O)N[C@@H](C)C(=O)N[C@@H](CCCNC(=N)N)C(=O)N[C@H](C(=O)NCCOCCOCCOCCOCCOCCOCCOCCOCCOCCOCCOCCOCCOCCOCCOCCOCCOCCOCCOCCOCCOCCOCCOCCOCCOCCOCCOCCOCCC(N)=O)[C@@H](C)O)C(C)C)C(C)C [fluorine-18 labelled],,,"female athymic nude mouse, lung","intravenous, range over all time points",,lung uptake,2 to 3 %ID/g
c1cc2c(cc1O[C@H]1OC[C@H]3[C@@H]1CO[C@@H]3c1ccc3c(c1)OCO3)OCO2,rep main protease,"reporter gene (mKate2), inhibitor",,20 µM,,inhibition,-0.515%
O=C1NC(=O)C2(CC(C(=O)N3CCC[C@H]([C@H]4CCCN(C(=O)Cc5cccnc5)C4)C3)C2)N1 (stereo partly shown),rep main protease,"enzyme activity, inhibitor",,"5 µM, run 1",,inhibition,10.4%
COc1ccc2nc([S@@+]([O-])Cc3ncc(C)c(OC)c3C)[nH]c2c1,rep main protease,"reporter gene (mKate2), inhibitor",,20 µM,,inhibition,0.448%
NC(=O)c1ccc(/C=C/C(=O)N2CCC[C@@]3(CCN(C(=O)[C@@H]4CC(=O)NC(=O)N4)C3)C2)cc1,rep main protease,enzyme activity,,5 µM,,inhibition,15%
Cc1ccc(-c2ccc(C)cn2)nc1,rep main protease,"reporter gene (Gaussia luciferase), inhibitor",,20 µM,,inhibition,-3.55%
O=C(c1cnn2c1CCC2)N1CCCCC[C@@H](Nc2nc(-c3cccnc3)nc3c2CCC3)C1,rep main protease,"enzyme activity, inhibitor",,"5 µM, run 1",,inhibition,7.6%
Cc1ccc2nc(Cl)c3cc(C(=O)NCCCN4CCC(C)CC4)sc3c2c1,SARS-CoV-2,cytopathic effect,USA_WA1/2020,"retest, 8-point, duplicates",,efficacy,91.1%
O=C(c1ccc2cccnc2c1)N1CC[C@@H]([C@@H]2CCCN(C(=O)c3cccn4cnnc34)C2)C1,rep main protease,"enzyme activity, inhibitor",,"5 µM, run 2",,inhibition,10.1%
COc1ccc2c(Sc3ccccc3)c(C(=O)NCCCN3CCCCC3)[nH]c2c1,SARS-CoV-2,cytopathic effect,USA_WA1/2020,"retest, 8-point, duplicates",,maximum response,76%

# Some of these lines once more:
SMILES,tested on,assay,system,conditions,scale,quantity,value
CC[C@H](C)[C@H](NC(=O)[C@H](CC(C)C)NC(=O)[C@H](Cc1c[nH]c2ccccc12)NC(=O)[C@H](CCC(N)=O)NC(=O)[C@@H](NC(=O)[C@H](Cc1ccccc1)NC(=O)[C@H](C)NC(=O)[C@H](CCCCNC(=O)COCCOCCNC(=O)COCCOCCNC(=O)CC[C@H](NC(=O)CCCCCCCCCCCCCCCCCCC(=O)O)C(=O)O)NC(=O)[C@H](CCC(N)=O)NC(=O)[C@H](C)NC(=O)[C@@H](NC(=O)[C@H](CCCCN)NC(=O)[C@H](CC(=O)O)NC(=O)[C@H](CC(C)C)NC(=O)C(C)(C)NC(=O)[C@@H](NC(=O)[C@H](CO)NC(=O)[C@H](Cc1ccc(O)cc1)NC(=O)[C@H](CC(=O)O)NC(=O)[C@H](CO)NC(=O)[C@@H](NC(=O)[C@H](Cc1ccccc1)NC(=O)[C@@H](NC(=O)CNC(=O)[C@H](CCC(=O)O)NC(=O)C(C)(C)NC(=O)[C@@H](N)Cc1ccc(O)cc1)[C@@H](C)O)[C@@H](C)O)[C@@H](C)CC)[C@@H](C)CC)C(C)C)C(=O)N[C@@H](C)C(=O)NCC(=O)NCC(=O)N1CCC[C@H]1C(=O)N[C@@H](CO)C(=O)N[C@@H](CO)C(=O)NCC(=O)N[C@@H](C)C(=O)N1CCC[C@H]1C(=O)N1CCC[C@H]1C(=O)N1CCC[C@H]1C(=O)N[C@@H](CO)C(N)=O,,item: treatment-emergent upper respiratory tract infection,healthy subjects,"1.5 mg, multiple ascending dose",,subjects with adverse event,0%
O=C(/C=C/c1ccc(O)c(O)c1)OC[C@H]1O[C@@H](OCCc2ccc(O)c(O)c2)[C@H](O)[C@@H](O)[C@@H]1O,Spike glycoprotein,binding,,,,koff,0.00309 s⁻¹
